Assay results collected from several papers.
Every numbered part comes from another study and shows a few of its results, in no order. Changes are numbered by the printed parent chain.

Sample 1 — target: CCND1, cyclin fold, Cln2 fusion (human); technique: yeast growth competition, sequencing; matrix: yeast; notes: weak parent motif; relative to: not given; direction: higher = stronger binding; quantity: normalised enrichment score
Parent: SAMHD1 docking peptide (human); ASKSRVQLFKDDP
ASKSRVQLFKYDP [D11Y]: 0.141
ASKSRVHLFKDDP [Q7H]: 0.412
ASKSRGQLFKDDP [V6G]: 0.235

Sample 2 — technique: protein-binding microarray; form: double-stranded DNA, one strand shown; matrix: in vitro; tested at: 250 nM; notes: 60-bp whole probe; added: salmon DNA 0.4 mg/ml; relative to: random background probes; direction: higher = stronger binding; quantity: log fluorescence; constant ends, left off below: GCCTAGCAC … GTCTTGATTCGCTTGACGCTGCTG
Target: Interferon regulatory factor 7, full length, phosphomimetic (IRF7, Homo sapiens, UniProt Q92985, residues 1-503, S101K/S471D/S472D/S475D/S476D/S477D/S483D/S484D/S487D)
Target sequence (chain): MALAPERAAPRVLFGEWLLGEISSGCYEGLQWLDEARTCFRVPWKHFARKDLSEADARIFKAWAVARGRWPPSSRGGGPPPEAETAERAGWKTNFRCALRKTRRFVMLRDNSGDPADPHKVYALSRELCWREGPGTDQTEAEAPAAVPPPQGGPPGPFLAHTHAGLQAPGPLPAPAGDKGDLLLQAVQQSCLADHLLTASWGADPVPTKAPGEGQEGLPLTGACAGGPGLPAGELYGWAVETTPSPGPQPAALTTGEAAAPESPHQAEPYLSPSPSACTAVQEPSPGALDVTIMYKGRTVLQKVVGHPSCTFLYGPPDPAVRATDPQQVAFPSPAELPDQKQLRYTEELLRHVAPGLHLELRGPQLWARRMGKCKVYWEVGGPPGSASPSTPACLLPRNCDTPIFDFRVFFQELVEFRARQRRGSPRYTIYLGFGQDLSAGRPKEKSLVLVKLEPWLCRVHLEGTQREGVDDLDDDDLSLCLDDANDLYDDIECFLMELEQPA
TTCTTTATGCACTCTTTACATGTGCTA: 0.831 z-score
GACGATATGGGGACTGGAGACGTGCTA: -0.364 z-score
TTAGATTTCGGGACTGGATTGGTGCTA: 0.523 z-score
TTAGAACTGGGGTATCGCTTAGTGCTA: -0.389 z-score
CTCTCTTTCCAACTCTGTTTGTGCTAG: 2.24 z-score
TCAAATATTTACCTCTCACTGTGCTAG: 0.538 z-score

Sample 3 — technique: RNA Bind-n-Seq; form: RNA; matrix: in vitro; tested at: 200 nM; notes: whole 134-nt RNA, ends assumed; added: 150 mM LiCl; relative to: input library; direction: higher = stronger binding; quantity: log2 enrichment; all molecules: 7-deaza-guanosine replaces G
Target: Ras GTPase-activating protein-binding protein 1, full length (G3BP1, Homo sapiens, UniProt Q13283)
UniProt Q13283, sequence (whole entry, looked up): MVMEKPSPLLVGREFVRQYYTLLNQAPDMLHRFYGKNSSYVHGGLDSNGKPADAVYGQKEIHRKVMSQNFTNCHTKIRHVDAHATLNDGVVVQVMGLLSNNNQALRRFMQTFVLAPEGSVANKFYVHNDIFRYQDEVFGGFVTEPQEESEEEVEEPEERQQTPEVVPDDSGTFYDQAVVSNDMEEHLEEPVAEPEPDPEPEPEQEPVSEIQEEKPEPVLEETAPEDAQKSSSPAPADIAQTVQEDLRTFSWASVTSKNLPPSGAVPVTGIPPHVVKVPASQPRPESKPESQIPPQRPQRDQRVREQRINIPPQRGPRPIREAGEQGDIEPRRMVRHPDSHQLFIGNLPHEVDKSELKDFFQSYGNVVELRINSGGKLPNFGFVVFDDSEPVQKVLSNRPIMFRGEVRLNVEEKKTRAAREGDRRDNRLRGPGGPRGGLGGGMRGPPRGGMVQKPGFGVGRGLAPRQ
Constant ends, left off below: GGGAGUUCUACAGUCCGACGAUC … UGGAAUUCUCGGGUGUCAAGG
UGUGCUACACAUCGUAUGUACCGAAUCGGGGAAAAAAAGGGGUUUUUUUGGGGUUUUUGGGGAAAGUAUUAUGUUACGCCGUUCGGAUCU: -1.88
UGGCCCUGAUGGCAUGCGGGGAGGAAGAGGUGGCCUCAUGGAUCGUGGUGGUCCCGGUGGAAUGUUCAGAGGUGGCCGUGGUGGAGACAG: -0.105
GUCCUGUGCUACACAUCGUAUGUACCGAAUCGGGUUUUUUUGGGUUUUUUUGGGAGGGAAAGUAUUAUGUUACGCCGUUCGGAUCUGCAC: 0.398
CUGUGCUACACAUCGUAUGUACCGAAUCAAAUUUUUUUAAACCCCCCCAAACCCCCCCAAAAAAGUAUUAUGUUACGCCGUUCGGAUCUG: 0.0271
AAGUCCUGUGCUACACAUCGUAUGUACCGAAUCGGCCCCGGCCCCGGGGCCCCGGGGAAAGUAUUAUGUUACGCCGUUCGGAUCUGCACU: -1.33
AAGUCCUGUGCUACACAUCGUAUGUACCGAAUCGGGAAAGGGAAAGGGAAAAAGGGAAAGUAUUAUGUUACGCCGUUCGGAUCUGCACUU: 0.262
AAGUCCUGUGCUACACAUCGUAUGUACCGAAUCGGAAAAGGGGAAAAGGGAAAAGGAAAGUAUUAUGUUACGCCGUUCGGAUCUGCACUU: -0.226
ACCAUGCAGGUGGGCAUCUUUGGGAAGUGGGGCAAGGGGGGGAUAGGGAGGGGGGUAACACAAAGGGAACAGGUGGUCCCAGGUCGUUUC: -0.0824

Single results of other studies
PhoQ, residues 284 288 289 292 302 303 SCKMEA
fold induction (PhoP, residues 12 14 15 18 19 TPWLV (Escherichia coli, UniProt P23836); Sort-seq, measured: YFP reporter; E. coli; PhoQ-PhoP variant library, added: 10 µM Mg2+; relative to: high Mg2+ state, higher = stronger signaling): 15.3

For quick reference, copied from above (sample 1):
ASKSRVQLFKYDP [D11Y]: 0.141
ASKSRVHLFKDDP [Q7H]: 0.412
